Earlier results that unrelated publications cite.
Compare with care: the assays were run in different laboratories. Positions of bridges follow the written chain, without caps; N, C: chain ends. No end group written: not given here.
B1: CCL4; sequence looked up; chain APMGSDPPTACCFSYTARKLPRNFVVDYYETSSLCSQPAVVFQTKRSKQVCADPSESWVQEYVYDLELN

| Molecule | target or system | test | system | setting | measurement | result |
| --- | --- | --- | --- | --- | --- | --- |
| deltorphin I | human opioid receptor DOP | binding | – | – | Ki | 1.73 nM |
| KKTKPTPPPKPSHLK | Abp1 SH3 domain (Saccharomyces cerevisiae) | binding | peptide | – | Kd | 270 nM |
| DPDPE | human opioid receptor KOP | binding | – | – | Ki | > 10000 nM |
| CCL3 | US28 T12A | binding, radioligand competition | – | – | Kd | 4.1 nM |
| enfortumab vedotin | – | – | mouse ICR SCID | – | clearance | 1.2 mL/h/kg |
| RLEICQNVCYYLGTL (disulfide 5-9 (inferred)) (disulfide) | streptavidin | binding, bacterial display flow cytometry | – | – | Kd | 10 nM |
| cilgavimab | SARS-CoV-2 spike protein | binding | – | – | Kd | 0.013 nM |
| AIP-III D4A | Receptor-histidine kinase AgrC (agrC, Staphylococcus aureus, UniProt O07911) | antagonist | – | – | IC50 | 0.485 nM |
| omiganan | – | – | rat erythrocytes | 200 µM | hemolysis | 0% |
| DAPI | HCV NS3 helicase | helicase activity, inhibitor | – | – | IC50 | 1100 nM |
| B1 (CCL4) | US28 T11A | binding, radioligand competition | – | – | Kd | 2.7 nM |
| melittin | Klebsiella pneumoniae | – | ATCC 700603 | literature value | MIC | 12.5 µM |

Excerpt of the above:
| Molecule | target or system | test | system | setting | measurement | result |
| --- | --- | --- | --- | --- | --- | --- |
| RLEICQNVCYYLGTL (disulfide 5-9 (inferred)) (disulfide) | streptavidin | binding, bacterial display flow cytometry | – | – | Kd | 10 nM |
